Assay results pooled from the literature.
Numbered parts are unrelated; each lists some results of a single study. Changes are numbered by the printed parent chain.

Set 1
Target: CCND2, cyclin fold, Cln2 fusion (human)
Technique: yeast growth competition, sequencing
Sample: yeast
Setting: weak parent motif
Relative to: not given
Direction: higher = stronger binding
Starting sequence: CDC25A docking peptide (human); PPHRRRLLFACSP
| Change | normalised enrichment score |
| --- | --- |
| PPHRRNLLFACSP [R6N] | 0.409 |
| PPHRRRLLFDCSP [A10D] | 0.0595 |
| PPHRDRLLFACSP [R5D] | -0.0403 |
| FPHRRRLLFACSP [P1F] | -0.125 |
| PPHRRRLLFAISP [C11I] | 0.245 |
| PPHRRRLCFACSP [L8C] | 0.0488 |
| PPHRRRLLFPCSP [A10P] | 0.188 |
| PSHRRRLLFACSP [P2S] | -0.0615 |
| PPHRRRLTFACSP [L8T] | 0.309 |
| PPHRRRTLFACSP [L7T] | 0.568 |
| PPHRRRELFACSP [L7E] | 0.0537 |
| PPHRRRKLFACSP [L7K] | 0.444 |
| PPHRRRLLEACSP [F9E] | 0.072 |

Set 2
Target: RNA binding protein fox-1 homolog 2, RRM domain, GST-SBP tag (RBFOX2, Homo sapiens, UniProt O43251-10, residues 100-194)
Technique: RNA Bind-n-Seq
Form: RNA
Sample: in vitro
Concentration: 365 nM
Setting: natural RNA segment, single round, ends assumed
Relative to: no-protein control
Direction: higher = stronger binding
Constant ends, left off below: GGGAGUUCUACAGUCCGACGAUC … UGGAAUUCUCGGGUGCCAA
Target sequence (chain): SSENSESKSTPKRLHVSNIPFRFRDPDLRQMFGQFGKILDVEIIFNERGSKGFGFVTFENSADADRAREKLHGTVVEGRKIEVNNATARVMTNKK
| Sequence | RBNS enrichment (R) |
| --- | --- |
| UUCCUUCAGGAGAGCUUGUCACUUCCUUCUUAACGCAGUGGUUCCUAUCUCAGGGAUACUGGACUUGACGACACAGAUGAACAAUUAAAGUGGAAACCGCUUCCCUUUUC | 0.201 |
| UUGCUUCUGAGGCACUAUUUGCCCUAAAAUAUAAUGGGCUUUUGUUUUGAGACUGGGUUUCAUUCUGUAGCCCAGGCUAGCCCUGAACUUGUUACAGUGUCCUUUUUUUC | 0.537 |
| AACCACUACAAAGAGAUAACACUGUACGGGGACUGCCAGAUCUUCUGUCCUAGGGCAGUUUUAAUCAAUGUUUUCUAGGGAUUAGGAAGAAGUGUAUAAUAUUGUAAAAC | 0.593 |
| GUCGGGCUUAUAAAAAUCUGUGCCAUCAUGGUGAUUUUAUCCAAGACUGCUCCACUUACCCCAGUGCUGGGGACAAGUUUCUGUUGAAACUUUAGAUAGCAGAAUUAUUU | 0.338 |
| CACAAACUCAGUCCUUAAAACCCCAGGAGUUGAGGGGAAGUGUUGGCACAGUGAUGGCCUGUGUCACCGUGUAGUGUCAUAGGCCAUCACUGUGCCAGAGCAAGCACGCU | 0.3 |
| CAGGCAGAGGGUCCUGCGCCCCCCAGCACUCCCCUGCCCUCUCCCACACCUCAGGUCCAGCGCACACUUCCUCCUUGCAUAGCAGGUGGGAGCAGACUUCUAAUGGACAG | 0.615 |
| GCAUGGGGCUGGCAUGCAGGAAGUGCCCUGUAUCUGCAGCAGGAGGCUCUGGGCUGGGACAUGGCUUAGAGUGACUUUCUGUCUUAGAAAUCAUGGUAUAUCCUCAGGAG | 12.6 |
| UAGGCGUUUGCCUUGGAAAUGUGGAAAGUGCUUUACUAAAUAAUAAAAUUAAUUUUGUUUACGAGUGAAAGACAUUUUUUGCCAUACAUUGUAUGGUUGGAAUUGCCGGG | 0.708 |
| CUGAAGCCAGGCGGGGGUCUGCUGGAGGAUUCCAACAGAGAGUAUUUCCUCCACUGUACAAUGUCACAGACUAUCUCUAUCAUCAUUGCUUUGUGGCUGUUUCUGUUUUU | 0.387 |
| UUUUGUGUGUGCCAAUUUUGUUAUCACAUCCCUAUGAAGUUGAAAAAUAAAGUUAAUUUUGACCAAAGACUUCAUUUGUAACCCAUGAUGUUCAUCUGUGUGUGCACAGG | 0.282 |
| GACCAGGACGGGUAGAGGCCUCUGCUAAAGAGCCCGGAUGCAGCGUCUUCCGUGGGACUGUCCCCAAGGCUGAGGCUCCUGCCAAGUCCUAGGGGCCUCUGUACCUGCCC | 0.243 |
| UUAACAUUAGGCUCCUUGCUACUUAUGCAAAUUUCUGCAGCUGGCUUGAAUUUCUCCCCAGAAAAUGGGUUUUUCUUUUCUAUUGCAUAGUCAGGCUGCAAAUUUCCAAA | 0.768 |

Set 3
Target: Interferon regulatory factor 7, full length, phosphomimetic (IRF7, Homo sapiens, UniProt Q92985, residues 1-503, S101K/S471D/S472D/S475D/S476D/S477D/S483D/S484D/S487D)
Technique: protein-binding microarray
Form: double-stranded DNA, one strand shown
Sample: in vitro
Concentration: 250 nM
Setting: 60-bp whole probe
Added: salmon DNA 0.4 mg/ml
Relative to: random background probes
Direction: higher = stronger binding
Constant ends, left off below: GCCTAGCAC … GTCTTGATTCGCTTGACGCTGCTG
Construct (chain): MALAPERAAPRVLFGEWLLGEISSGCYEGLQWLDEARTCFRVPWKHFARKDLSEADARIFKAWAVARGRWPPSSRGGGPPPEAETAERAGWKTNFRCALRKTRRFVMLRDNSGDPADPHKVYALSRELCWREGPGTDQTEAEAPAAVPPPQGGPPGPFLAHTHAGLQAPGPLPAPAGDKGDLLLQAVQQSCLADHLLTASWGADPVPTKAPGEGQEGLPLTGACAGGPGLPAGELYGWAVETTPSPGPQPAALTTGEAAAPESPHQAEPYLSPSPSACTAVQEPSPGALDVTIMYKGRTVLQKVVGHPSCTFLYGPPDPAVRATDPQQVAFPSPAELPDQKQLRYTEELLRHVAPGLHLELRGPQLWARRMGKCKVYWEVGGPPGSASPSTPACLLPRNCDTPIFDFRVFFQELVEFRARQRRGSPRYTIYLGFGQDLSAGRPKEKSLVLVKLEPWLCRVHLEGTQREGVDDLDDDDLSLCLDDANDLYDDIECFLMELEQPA
| Sequence | log fluorescence [z-score] |
| --- | --- |
| TAGAACTTCTCCACTGAATGAGTGCTA | -0.14 |
| GTCGGTCTCGGTTTCGGGACGTGCTAG | 8.91 |
| TTTCCCTAGAAGACGAAAGAGTGCTAG | 3.6 |
| GACGGTCTCGACTTTCGGGACGTGCTA | 2.32 |
| TCACATTGCCTGTTTTTCACTGTGCTA | 0.463 |
| TATGGTATTTTTTTCTAATTGTGCTAG | 1.33 |
| GACGATTTCAGACTTGAGACGTGCTAG | 0.204 |
| TCAGGTTTTACTTTCTAACTGTGCTAG | 1.05 |
| GACGGTATCGGTGTCGGGACGTGCTAG | -0.291 |
| TTAGATTTCGGGATTGGATTAGTGCTA | 0.446 |
| GACGGTCTCGGTTTCTGGACGTGCTAG | 6.66 |
| CTACTTCTGTTTTTGCTTTCGTGCTAG | 2.62 |
| TCATTTCTTTTATTAGTACTGTGCTAG | 1.87 |
| TCAATTTTCATTTTGTGACTGTGCTAG | 2.54 |
| TTAGGTATCGGACTGGGCTAGTGCTAG | 0.0184 |
| GACGGTTTCGGTTTCGGGACGTGCTAG | 13.7 |
| GACGGTTTCCCTTCCCTGACGTGCTAG | 3.5 |
| GACGTTATCGGGACTGGGGACGTGCTA | -0.107 |
| GACGGTAGCGACTTTCGGGACGTGCTA | -0.513 |

Set 4
Target: JUND, bZIP domain (human)
Technique: DHFR protein complementation
Sample: yeast
Setting: single substitutions, most at no-binding floor
Relative to: wild-type JUN-FOS pair
Direction: higher = stronger binding
Starting sequence: JUN, bZIP domain (human); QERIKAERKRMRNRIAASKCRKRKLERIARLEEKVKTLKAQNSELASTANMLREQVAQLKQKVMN; partner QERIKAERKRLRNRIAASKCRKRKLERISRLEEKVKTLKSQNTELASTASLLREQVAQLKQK
| Change | binding fitness [natural log] |
| --- | --- |
| Q41N | -1.18 |
| K36V | -0.95 |
| Q58A | -0.683 |
| M51N | -0.671 |
| M51C | -0.841 |
| K39H | -0.867 |
| T37Q | -0.346 |
| T37V | -0.629 |
| E44K | -0.887 |
| S43A | -0.401 |
| A29V | -1.05 |
| A29E | -0.998 |
| K34D | -0.852 |
| A29W | -0.978 |
| Q58H | -0.718 |
| Q41A | -0.755 |
| M51Y | -0.734 |
| E32A | -0.781 |
| V56I | -0.484 |
| V56A | -1.1 |

Set 5
Target: ABI1, truncated, D143A, DHFR fusion (Arabidopsis thaliana)
Technique: DHFR PCA, deep sequencing
Sample: yeast
Setting: methotrexate growth selection, single substitutions
Added: (+)-ABA 17 µM
Relative to: wild-type fitted maximum
Direction: higher = stronger binding
Starting sequence: PYL1, truncated, DHFR fusion (Arabidopsis thaliana); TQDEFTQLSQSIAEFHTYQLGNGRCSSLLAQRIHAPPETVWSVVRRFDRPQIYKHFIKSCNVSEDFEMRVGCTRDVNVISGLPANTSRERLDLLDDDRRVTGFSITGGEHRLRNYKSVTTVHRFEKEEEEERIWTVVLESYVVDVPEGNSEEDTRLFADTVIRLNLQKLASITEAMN; partner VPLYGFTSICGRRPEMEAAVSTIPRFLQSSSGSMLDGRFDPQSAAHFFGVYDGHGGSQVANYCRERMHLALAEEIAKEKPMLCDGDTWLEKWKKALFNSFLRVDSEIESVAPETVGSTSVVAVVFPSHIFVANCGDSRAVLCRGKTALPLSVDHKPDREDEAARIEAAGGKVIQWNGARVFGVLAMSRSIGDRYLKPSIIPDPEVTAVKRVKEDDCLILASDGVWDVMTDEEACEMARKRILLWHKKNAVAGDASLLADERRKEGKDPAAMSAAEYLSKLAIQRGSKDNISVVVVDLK
| Change | relative binding score |
| --- | --- |
| N77Q | 92.6% |
| M68P | 69% |
| F5G | 68.5% |
| Q167L | 78.7% |
| E125H | 92.8% |
| E131S | 87.6% |
| N22G | 81.2% |
| D75I | 89.7% |
| N77P | -7.48% |
| I79M | 70.8% |
| I172Q | 38.4% |
| R111A | 14.7% |
| V143K | -5.67% |
| R163V | 10.9% |
| F15C | 35.7% |
| A170P | -7% |
| M68W | 40.3% |
| F157K | -23.9% |
| R49E | 76.9% |
| D92E | 65.2% |
| V100G | -1.44% |
| F5A | 72.1% |
| E4D | 78.6% |
| T101V | 82.7% |
